Published values from different studies.
Every numbered part comes from another study and shows a few of its results, in no order. Substitutions count along the parent as printed.

Series 1 — method: RNA Bind-n-Seq; form: RNA; sample: in vitro; concentration: 365 nM; reference: no-protein control; reading: higher = stronger binding
Target: RNA binding protein fox-1 homolog 2, RRM domain, GST-SBP tag (RBFOX2, Homo sapiens, UniProt O43251-10, residues 100-194)
Notes: natural RNA segment, single round, ends assumed
Target sequence (chain): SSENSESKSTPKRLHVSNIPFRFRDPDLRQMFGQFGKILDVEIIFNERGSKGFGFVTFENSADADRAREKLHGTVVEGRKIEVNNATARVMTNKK
Under “RBNS enrichment (R)”, `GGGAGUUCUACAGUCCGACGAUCUGGGCCAACUAUUUAGUAAGCCCGGAUAGACUUAUUGCCAAAAACAAAAAAUAGCUUUCAAAAGAAAUUUAAGUUCUAUGAGAAAUUCCUUAGUCAUGGUGUUGCGUAAAUGGAAUUCUCGGGUGCCAA` is recorded as 0.651.
`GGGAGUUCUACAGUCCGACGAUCUGUGGCUGUCUUUUUUAAUCCUUGUGUAAAGCAGCAAAAAAGACCUAAAGGGAAUUGUAAUUUGGUUAUAAUUCAGGAUUUGGAAAUAAAUUUAUUAUUUGUAAAACAUGUGGAAUUCUCGGGUGCCAA`: “RBNS enrichment (R)” 0.331.
`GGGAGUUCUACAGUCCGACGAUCUUAGCACUUAGGAAGCUUCUCCAACCUGUGCUCUAGGUCAGUAAAACUUCGUCCUCUGAAAUGCUUUUCUGUACUAAACUAACUUGAACGUGACCUAGAAACCAAGAGAUUGGAAUUCUCGGGUGCCAA` — result for “RBNS enrichment (R)”: 0.75.
For `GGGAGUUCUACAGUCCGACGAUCAGACUUGAGGUCCCCACCCAGGCCAAGCCGGCCCCCCGUACCCCUUGCCUGGGAGCAAACCGCCAGGACGCAGCCUCCACGCCGCACCUGCCACAUUCAGCCCUGCCCAGUGGAAUUCUCGGGUGCCAA`, “RBNS enrichment (R)” read 0.357.
For `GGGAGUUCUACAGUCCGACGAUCCAGAGCGAGGAACAAGCCAUUAGGACCUGACCGUUGUAAAUACAGCCGCCCGCCCGCCGGUCCCCAGCCGGGCUCCGUUGGGUUUCCCAUUGUAAAUACUGCCUCGCCCCUGGAAUUCUCGGGUGCCAA`, “RBNS enrichment (R)” read 0.276.
`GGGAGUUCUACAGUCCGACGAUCAGAUUCUUUGAUGCUGGACUCAGGAGGGAAAUCAUUAGCCAACUGUUGACUUACUUAUAGCUAGAUGUCUAUGUGAGAAAGUAUAAUAUAUAUAUAUACACAUAUAUAUGUGGAAUUCUCGGGUGCCAA` — result for “RBNS enrichment (R)”: 0.712.
For `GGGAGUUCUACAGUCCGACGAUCGGAAGAGAGAGAGAGAGACUGACUGACUCAGAGAACUGUGUGGUAGGACAACAGCAAGAUGAGCCUGUGCAUGAAGAACUCACGGGGCACUUCCCCACAAUGCUGCAUUAUGGAAUUCUCGGGUGCCAA`, “RBNS enrichment (R)” read 16.4.
`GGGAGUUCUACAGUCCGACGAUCGAAAAAUACUGCAGAAGUUAAACCUGUGAUGUGUUUUUUUGAGCUGUUUUGUUUUAAGGUAACUACUGAAAUAAGUCUGGCUGUUUUUAUAUGCCAGAUACAGAGAAUUUUGGAAUUCUCGGGUGCCAA`: “RBNS enrichment (R)” 0.647.
For `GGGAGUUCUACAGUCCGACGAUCUGUGAAGGGAUUUGUUUUGUCAAAAAAUUAAAAACUCAAUGUGUAUGACGCCACUCUGAAGAGUAGGUGAGCGCUUUGCAGUCACAGAAGGUGGCAUCUGACUGCGGCUCUGGAAUUCUCGGGUGCCAA`, “RBNS enrichment (R)” read 0.918.
`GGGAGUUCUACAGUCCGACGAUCGAGCAAUUAUAAAAUCUUCAAUCAAUUGAACUUUUACAAAACCACUUGAGAAUUUCAUGAGCACUUUAAAAUCUGAACUUUCAAAGCUUGCUAUUAAAUCAUUUAGAAUGUGGAAUUCUCGGGUGCCAA`: “RBNS enrichment (R)” 0.769.
Under “RBNS enrichment (R)”, `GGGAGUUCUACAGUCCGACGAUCAUAAAGAAGGGCAGUGUGAACCCAGGCAGUUGAUGUCAUGAUUCCAUGUGGCCAGUCCUGUGGGACUUAGGGUCCCAACCUGUAUAUUCUGUCUCAAAGAACAUUAAACUUGGAAUUCUCGGGUGCCAA` is recorded as 0.264.
`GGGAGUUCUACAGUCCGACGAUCCCUUAAGCCUGUGGUAAAAGGGCUUCAGGGAAGGUAAGUGGGCCACCUGCUGGAAGCUGCCAGCUGCCCGGCUGGCAAUGGUGUGAGUGUCUUGGCCCUGUCCCUGCCCUUGGAAUUCUCGGGUGCCAA` — result for “RBNS enrichment (R)”: 0.336.

Series 2 — method: protein-binding microarray; form: double-stranded DNA, one strand shown; sample: in vitro; concentration: 250 nM; notes: 60-bp whole probe; together with: salmon DNA 0.4 mg/ml; reference: random background probes; reading: higher = stronger binding; all sequences stand within: GCCTAGCAC … GTCTTGATTCGCTTGACGCTGCTG
Target: Interferon regulatory factor 5, full length, phosphomimetic (IRF5, Homo sapiens, UniProt Q13568-2, residues 1-514, K96S/S451D/S453D/S456D/S462D)
`GACGGTATCGGTTTCGGAACGTGCTAG` gave a log fluorescence of 9.33 z-score.
For `TGTCTGTCTGTCACCCGGACGTGCTAG`, the log fluorescence was 0.373 z-score.
`GTCGGTTTCGACACTGGGGACGTGCTA` has a log fluorescence of 5.63 z-score.
`TTAGGCATCGGGTATCGGTTAGTGCTA` has a log fluorescence of 3.87 z-score.
With `ATCATTTTCGTTTTTATTATGTGCTAG` the log fluorescence was 7.42 z-score.
`TGAGGTATCGGTTTCGGTTAGTGCTAG` gave a log fluorescence of 10.7 z-score.
`TTAGGACCGCTTCTCCTTTAGTGCTAG` has a log fluorescence of -0.0413 z-score.
The log fluorescence of `GACGGTATCGCTCTCGGGACGTGCTAG` is reported as 1.33 z-score.
`TTAGATCCCAGTTTCGATTAGTGCTAG` gave a log fluorescence of 9.72 z-score.
For `TCATGTTGTTTTTTGGTACTGTGCTAG`, the log fluorescence was 1.16 z-score.
The log fluorescence of `AGACAGTTGAGTTCTGTTGCAGTGCTA` is reported as -0.162 z-score.
For `TTAGGACTGGGACTGGGTTTGTGCTAG`, the log fluorescence was -0.519 z-score.
With `GACGGTTCCGGCTTCGGGACGTGCTAG` the log fluorescence was 0.253 z-score.

Series 3 — method: protein-binding microarray; form: double-stranded DNA, one strand shown; sample: in vitro; concentration: not given; reading: higher = stronger binding
Target: Myc proto-oncogene protein, bHLH-zipper, MAX partner unstated (MYC, Homo sapiens, UniProt P01106, residues 368-449)
Sequence of UniProt P01106 (368-449, looked up): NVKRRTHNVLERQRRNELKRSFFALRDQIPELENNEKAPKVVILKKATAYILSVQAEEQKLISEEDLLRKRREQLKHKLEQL
Notes: k-mer, scored over probes, only values ≥0.25
The E-score of `CGCACGCG` is reported as 0.456.
`AAGCCATG` has an E-score of 0.336.
`CTCATGCC` has an E-score of 0.315.
With `AACTCGTG` the E-score was 0.382.
The E-score of `CGCCTCTC` is reported as 0.25.
With `GCATGCAA` the E-score was 0.338.
The E-score of `CACCACAC` is reported as 0.316.
With `ACATCATG` the E-score was 0.277.
`CGCACGCA` has an E-score of 0.395.
With `CGTGGCAA` the E-score was 0.341.
`CGCGTTGC` has an E-score of 0.295.

Series 4 — target: CCNB3, cyclin fold, Cln2 fusion (human); method: yeast growth competition, sequencing; sample: yeast; notes: weak parent motif; reference: not given; reading: higher = stronger binding
Starting sequence: CDKN1B docking peptide (human); PSACRNLFGPVDH
`G9S` — result for “normalised enrichment score”: 0.226.
For `A3T`, “normalised enrichment score” read 0.341.
`R5H`: “normalised enrichment score” 0.106.
`D12C`: “normalised enrichment score” 0.395.
Under “normalised enrichment score”, `A3Y` is recorded as 0.32.
`D12E`: “normalised enrichment score” 0.193.
For `N6Q`, “normalised enrichment score” read 0.336.
`A3I`: “normalised enrichment score” 0.84.
For `C4V`, “normalised enrichment score” read 0.203.
For `P10D`, “normalised enrichment score” read 0.435.
For `N6S`, “normalised enrichment score” read 0.216.
For `C4W`, “normalised enrichment score” read 0.659.
Under “normalised enrichment score”, `P10C` is recorded as 0.371.
`N6T` — result for “normalised enrichment score”: 0.563.
`H13Q` — result for “normalised enrichment score”: 0.433.
`C4I` — result for “normalised enrichment score”: 0.437.

Series 5 — method: RNA Bind-n-Seq; form: RNA; sample: in vitro; concentration: not given; reference: input RNA pool; reading: higher = stronger binding
Target: RING finger protein unkempt homolog, zinc fingers 1-6, GST-SBP tag (UNK, Homo sapiens, UniProt Q9C0B0, residues 30-357)
Sequence of UniProt Q9C0B0 (30-357, looked up): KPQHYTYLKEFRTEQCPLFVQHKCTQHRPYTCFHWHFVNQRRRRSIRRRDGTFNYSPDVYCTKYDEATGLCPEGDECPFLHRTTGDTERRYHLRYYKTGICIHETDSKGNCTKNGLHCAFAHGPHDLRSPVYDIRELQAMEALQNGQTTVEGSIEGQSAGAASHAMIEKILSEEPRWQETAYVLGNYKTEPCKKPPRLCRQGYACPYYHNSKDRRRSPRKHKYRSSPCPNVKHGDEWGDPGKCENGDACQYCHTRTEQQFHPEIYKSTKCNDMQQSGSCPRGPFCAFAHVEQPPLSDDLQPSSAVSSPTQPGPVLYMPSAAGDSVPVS
Notes: RNA with constant flanks, human and mouse sites, ends assumed
`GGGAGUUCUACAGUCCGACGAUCCGUGGUGUUUCCUUUACUUUUGGAGCUGAUGUAGUCAGUAAAUUUCUGAAUCGUCAUGAUUUAGAUUUGAUUUGUCGAGCUCAUCAGGUGGUGGAAGAUGGAUAUGAAUUUUUUGCUAAACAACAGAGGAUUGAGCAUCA` gave a bound/input enrichment of 0.193 ratio.
`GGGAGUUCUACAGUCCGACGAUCGGCUCUACAGCGAUUAAGAAGAAACAACAAGAUGUGCUUGGUUUCCUAGAAGCCAACAAAAUAGGAUUUGAAGAAAAAGAUAUUGCAGCCAAUGAAGAGAAUCGGAAGUGGAUGAGAGAACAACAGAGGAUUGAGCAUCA` gave a bound/input enrichment of 1.08 ratio.
For `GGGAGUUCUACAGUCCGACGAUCGUUUCAAAUUUCCUGGUUAUGGGAGGAUUCCAGCUUCUUGCUAAGCCUGCCAUUGAUUUCCUAAAUAAAAACCAAGAACUCUUGCAAGAUUUGUCAGAAGUGAAUGAUGAGAACACUCAGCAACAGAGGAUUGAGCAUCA`, the bound/input enrichment was 0.182 ratio.
For `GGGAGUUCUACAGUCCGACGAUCCCUGCUCAGAUCACCAUGAAAGUAAUCCAAGGCUUGUACAGUGGGGUCACCACAGUGGAACUAGAUACUUUGGCUGCUGAAACAGCUGCAACCUUGACUACUAAGCACCCUGACUAUGCUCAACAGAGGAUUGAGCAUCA`, the bound/input enrichment was 0.202 ratio.
`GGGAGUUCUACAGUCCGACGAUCCUGGUGUGCCAGGAAAGUACUAAAUUUAAGAAUGUCUGGACAACUCAUUCCAGGUCACCUAUAGCCUAUGAGAGAGGAAGAAUAUAUUUUGACAAUUAUCGGCGCUGUGUCAGCAGUGUUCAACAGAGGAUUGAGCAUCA` gave a bound/input enrichment of 1.49 ratio.
`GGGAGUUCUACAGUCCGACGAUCUACUUAAAUGAAAUAAAACCUCCCAUCAUACACUAUGACCUCAAACCAGGUAAUAUUCUUUUAGUAAAUGGUACAGCGUGUGGAGAGAUAAAAAUUACAGAUUUUGGUCUUUCGAAGAUCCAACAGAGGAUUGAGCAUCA` gave a bound/input enrichment of 0.489 ratio.
With `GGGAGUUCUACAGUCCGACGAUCUUGGAUUUGAUGCCUUGGGAGUCAGACCUAUGGAGCCCCGGCAGCCACUUCUGCUCAGACAUGAAGGCAGAGCCCCAGCCUCUUUCUCCGGCUUCCUCCAGUUGCUCCAUCUCCUCUCCUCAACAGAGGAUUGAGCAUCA` the bound/input enrichment was 0.19 ratio.
`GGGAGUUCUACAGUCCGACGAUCAAGAAAGGAGAGAAAAAGGAGAAGCAGCAGUCGGCAGCAGCAAGUACUGACUCCAAGCCUAUCGACGCAUCGCGUCUGGAUCUUCGAAUUGGUUGUAUUGUUACUGCCAAGAAGCACCCUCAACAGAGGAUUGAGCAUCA` gave a bound/input enrichment of 0.205 ratio.
With `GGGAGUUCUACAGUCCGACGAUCGACCUUCUGCAGUUCACAACGCAAGUCUCCCGACUCAUGGUGACGGAGAUCCGGAGGAGAGCUUCAAACAAAUCCACAGAGGCUGCAAGUCGGGCCAUAGUCCAGUUCCUGGAGAUCAAUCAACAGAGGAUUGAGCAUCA` the bound/input enrichment was 0.198 ratio.
`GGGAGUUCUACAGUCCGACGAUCUUUGGGCCCCUCAUCUUCAUUUAUUAUAUUAUCAAAACUGAGAGGGAUAGGAAAGAAAAACUUAUCCAGGAAGGAAAAUUGGAUCGAACAUUUCACCUCUCAUAUUAAGUCUGGCAAUGACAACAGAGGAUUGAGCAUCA` gave a bound/input enrichment of 1.14 ratio.
`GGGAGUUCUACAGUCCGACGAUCGAGUAACAGAGGACAGCUGUUUUUUAACCCUCUUCUGCAAGUUUGUUGACCUACAUGGGCUAAUAUGGAUACUAAAAAUACUACAUUGAUCUAAGAAGAAACUAGCCUUGUGGAGUAUAUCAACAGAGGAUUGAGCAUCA` has a bound/input enrichment of 0.309 ratio.

Excerpt of the above (series 4):
`D12C`: “normalised enrichment score” 0.395.
Under “normalised enrichment score”, `A3Y` is recorded as 0.32.
`D12E`: “normalised enrichment score” 0.193.
For `N6Q`, “normalised enrichment score” read 0.336.
`A3I`: “normalised enrichment score” 0.84.
For `C4V`, “normalised enrichment score” read 0.203.
For `P10D`, “normalised enrichment score” read 0.435.
For `N6S`, “normalised enrichment score” read 0.216.
For `C4W`, “normalised enrichment score” read 0.659.
